Measurements pooled from the literature.
Every numbered part comes from another study and shows a few of its results, in no order.
Chain of UniProt P36897 (whole entry, looked up): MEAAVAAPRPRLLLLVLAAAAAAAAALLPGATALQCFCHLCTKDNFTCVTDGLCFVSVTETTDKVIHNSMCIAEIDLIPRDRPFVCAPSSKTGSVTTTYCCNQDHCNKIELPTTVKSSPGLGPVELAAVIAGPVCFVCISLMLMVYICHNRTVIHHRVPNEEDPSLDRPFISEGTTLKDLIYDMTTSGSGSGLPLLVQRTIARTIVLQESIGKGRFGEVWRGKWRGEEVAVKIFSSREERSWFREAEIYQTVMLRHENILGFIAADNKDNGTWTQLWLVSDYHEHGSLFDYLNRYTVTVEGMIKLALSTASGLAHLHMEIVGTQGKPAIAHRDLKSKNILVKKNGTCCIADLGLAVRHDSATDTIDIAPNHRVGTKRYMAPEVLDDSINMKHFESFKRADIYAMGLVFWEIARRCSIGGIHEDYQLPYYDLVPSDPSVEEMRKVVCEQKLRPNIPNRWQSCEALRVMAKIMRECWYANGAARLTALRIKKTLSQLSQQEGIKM
Chain of UniProt P04629 (whole entry, looked up): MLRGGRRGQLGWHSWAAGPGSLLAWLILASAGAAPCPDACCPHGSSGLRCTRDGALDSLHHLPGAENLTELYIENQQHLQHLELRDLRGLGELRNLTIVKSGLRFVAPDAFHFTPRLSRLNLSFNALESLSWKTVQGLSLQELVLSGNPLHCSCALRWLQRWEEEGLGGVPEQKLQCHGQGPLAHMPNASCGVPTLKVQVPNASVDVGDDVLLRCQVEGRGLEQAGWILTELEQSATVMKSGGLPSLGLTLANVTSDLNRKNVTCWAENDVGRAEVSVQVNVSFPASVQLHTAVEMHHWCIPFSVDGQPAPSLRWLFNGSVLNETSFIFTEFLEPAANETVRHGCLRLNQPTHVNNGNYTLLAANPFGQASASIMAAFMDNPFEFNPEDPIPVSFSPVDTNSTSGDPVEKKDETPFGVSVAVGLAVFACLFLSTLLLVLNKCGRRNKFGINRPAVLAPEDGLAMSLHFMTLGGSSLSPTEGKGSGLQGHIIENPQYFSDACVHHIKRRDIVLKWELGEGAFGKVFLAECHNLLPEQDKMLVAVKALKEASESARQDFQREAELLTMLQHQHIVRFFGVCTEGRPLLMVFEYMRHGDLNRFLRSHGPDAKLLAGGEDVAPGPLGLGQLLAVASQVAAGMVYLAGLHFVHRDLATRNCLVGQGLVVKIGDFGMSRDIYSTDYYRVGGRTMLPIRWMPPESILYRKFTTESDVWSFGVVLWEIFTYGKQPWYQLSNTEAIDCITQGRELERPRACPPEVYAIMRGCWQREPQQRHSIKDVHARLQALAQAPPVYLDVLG
Chain of UniProt Q96BR1 (whole entry, looked up): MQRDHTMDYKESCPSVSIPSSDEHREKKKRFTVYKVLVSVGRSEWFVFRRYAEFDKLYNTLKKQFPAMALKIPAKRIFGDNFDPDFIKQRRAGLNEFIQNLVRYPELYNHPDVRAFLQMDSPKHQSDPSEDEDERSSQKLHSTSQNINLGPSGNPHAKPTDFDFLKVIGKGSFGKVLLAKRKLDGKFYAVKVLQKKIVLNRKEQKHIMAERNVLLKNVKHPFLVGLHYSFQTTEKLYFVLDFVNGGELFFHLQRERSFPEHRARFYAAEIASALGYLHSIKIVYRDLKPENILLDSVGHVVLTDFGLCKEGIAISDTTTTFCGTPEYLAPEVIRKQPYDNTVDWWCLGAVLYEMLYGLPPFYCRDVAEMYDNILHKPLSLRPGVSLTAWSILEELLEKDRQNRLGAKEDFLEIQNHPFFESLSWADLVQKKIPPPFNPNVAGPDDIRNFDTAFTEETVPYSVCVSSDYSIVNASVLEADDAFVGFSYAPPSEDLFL
Chain of UniProt Q00535 (whole entry, looked up): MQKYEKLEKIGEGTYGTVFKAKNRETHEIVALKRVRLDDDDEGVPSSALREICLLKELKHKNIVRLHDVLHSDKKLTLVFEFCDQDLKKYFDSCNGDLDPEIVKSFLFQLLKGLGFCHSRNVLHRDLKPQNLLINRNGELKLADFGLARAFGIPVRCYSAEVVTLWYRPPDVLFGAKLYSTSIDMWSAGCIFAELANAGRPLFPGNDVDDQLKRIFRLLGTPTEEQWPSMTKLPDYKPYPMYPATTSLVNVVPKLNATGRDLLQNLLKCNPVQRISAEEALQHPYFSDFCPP
Chain of UniProt Q9BYP7 (whole entry, looked up): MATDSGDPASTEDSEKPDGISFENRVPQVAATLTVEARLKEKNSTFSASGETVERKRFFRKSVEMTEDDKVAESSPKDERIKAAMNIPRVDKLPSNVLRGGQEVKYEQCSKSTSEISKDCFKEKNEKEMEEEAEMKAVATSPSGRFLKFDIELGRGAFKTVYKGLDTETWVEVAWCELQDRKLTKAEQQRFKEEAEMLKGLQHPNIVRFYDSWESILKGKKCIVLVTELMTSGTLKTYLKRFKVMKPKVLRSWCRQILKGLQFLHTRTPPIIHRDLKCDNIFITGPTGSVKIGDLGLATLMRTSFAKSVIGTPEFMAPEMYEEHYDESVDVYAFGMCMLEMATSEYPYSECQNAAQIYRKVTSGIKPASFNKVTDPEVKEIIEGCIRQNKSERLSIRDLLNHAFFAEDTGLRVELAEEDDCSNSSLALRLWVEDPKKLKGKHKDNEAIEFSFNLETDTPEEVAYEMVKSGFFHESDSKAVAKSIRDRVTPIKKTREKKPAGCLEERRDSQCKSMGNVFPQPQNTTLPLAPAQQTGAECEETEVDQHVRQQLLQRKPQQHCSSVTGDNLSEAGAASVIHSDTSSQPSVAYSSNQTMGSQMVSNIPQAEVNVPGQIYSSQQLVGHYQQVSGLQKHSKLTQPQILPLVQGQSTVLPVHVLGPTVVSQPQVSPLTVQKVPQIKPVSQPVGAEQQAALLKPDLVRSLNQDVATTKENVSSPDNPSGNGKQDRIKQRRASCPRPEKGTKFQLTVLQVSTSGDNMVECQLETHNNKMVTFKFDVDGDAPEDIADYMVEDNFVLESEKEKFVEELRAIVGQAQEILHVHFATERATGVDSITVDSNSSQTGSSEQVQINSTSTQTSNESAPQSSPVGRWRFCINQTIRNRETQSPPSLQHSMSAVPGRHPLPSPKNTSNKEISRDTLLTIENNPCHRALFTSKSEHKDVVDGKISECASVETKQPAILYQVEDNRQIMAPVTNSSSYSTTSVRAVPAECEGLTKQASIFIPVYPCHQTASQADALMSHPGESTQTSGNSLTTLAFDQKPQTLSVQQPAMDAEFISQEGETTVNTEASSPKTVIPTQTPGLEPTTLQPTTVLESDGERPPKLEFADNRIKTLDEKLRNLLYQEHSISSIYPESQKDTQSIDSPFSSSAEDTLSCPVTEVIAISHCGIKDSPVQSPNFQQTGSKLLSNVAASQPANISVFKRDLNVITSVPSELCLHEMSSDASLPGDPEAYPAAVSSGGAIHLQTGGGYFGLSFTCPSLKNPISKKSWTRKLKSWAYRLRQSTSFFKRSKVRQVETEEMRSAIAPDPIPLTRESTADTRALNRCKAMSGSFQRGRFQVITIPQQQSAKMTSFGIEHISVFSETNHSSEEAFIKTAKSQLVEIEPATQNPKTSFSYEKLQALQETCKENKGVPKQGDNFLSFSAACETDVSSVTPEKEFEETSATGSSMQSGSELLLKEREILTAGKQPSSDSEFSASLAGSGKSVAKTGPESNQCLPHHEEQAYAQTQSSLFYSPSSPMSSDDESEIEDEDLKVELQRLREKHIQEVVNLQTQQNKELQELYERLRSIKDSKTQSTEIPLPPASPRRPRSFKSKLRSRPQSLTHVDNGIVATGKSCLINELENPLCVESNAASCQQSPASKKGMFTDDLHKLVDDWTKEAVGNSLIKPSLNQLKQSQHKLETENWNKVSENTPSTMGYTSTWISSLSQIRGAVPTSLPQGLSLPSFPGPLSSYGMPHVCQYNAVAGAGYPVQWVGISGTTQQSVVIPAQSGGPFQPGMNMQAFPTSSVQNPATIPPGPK
Chain of UniProt P35626 (whole entry, looked up): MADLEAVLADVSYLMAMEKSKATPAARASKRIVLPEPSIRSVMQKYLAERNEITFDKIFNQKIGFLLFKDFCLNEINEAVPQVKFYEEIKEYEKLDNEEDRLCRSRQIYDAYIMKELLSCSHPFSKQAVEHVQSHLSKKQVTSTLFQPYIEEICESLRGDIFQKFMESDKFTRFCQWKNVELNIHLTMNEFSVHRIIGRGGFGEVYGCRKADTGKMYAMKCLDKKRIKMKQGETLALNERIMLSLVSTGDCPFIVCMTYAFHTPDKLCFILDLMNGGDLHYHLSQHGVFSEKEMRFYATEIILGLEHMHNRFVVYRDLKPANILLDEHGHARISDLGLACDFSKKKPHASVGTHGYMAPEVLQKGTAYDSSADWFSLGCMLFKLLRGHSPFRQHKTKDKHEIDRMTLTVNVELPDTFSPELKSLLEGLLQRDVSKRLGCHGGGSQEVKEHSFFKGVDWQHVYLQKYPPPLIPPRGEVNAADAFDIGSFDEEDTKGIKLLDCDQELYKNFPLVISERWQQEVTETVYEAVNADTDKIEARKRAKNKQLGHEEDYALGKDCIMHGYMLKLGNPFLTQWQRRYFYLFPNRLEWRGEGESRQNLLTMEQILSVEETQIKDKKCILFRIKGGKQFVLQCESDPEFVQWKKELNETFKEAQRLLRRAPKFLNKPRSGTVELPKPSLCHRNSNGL
Chain of UniProt P51955 (whole entry, looked up): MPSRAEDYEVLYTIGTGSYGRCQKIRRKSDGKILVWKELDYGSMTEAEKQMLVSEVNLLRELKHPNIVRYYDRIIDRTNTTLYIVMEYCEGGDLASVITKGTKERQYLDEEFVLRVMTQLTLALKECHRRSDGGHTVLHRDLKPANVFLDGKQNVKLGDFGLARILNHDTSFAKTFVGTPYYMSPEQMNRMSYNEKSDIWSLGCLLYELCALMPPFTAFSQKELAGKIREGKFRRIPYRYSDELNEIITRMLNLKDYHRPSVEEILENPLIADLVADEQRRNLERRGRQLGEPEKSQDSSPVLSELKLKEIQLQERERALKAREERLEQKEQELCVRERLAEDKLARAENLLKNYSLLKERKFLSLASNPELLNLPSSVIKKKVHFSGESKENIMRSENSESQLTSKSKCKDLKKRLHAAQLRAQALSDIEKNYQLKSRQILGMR

Series 1
Target: Protein max, full length (MAX, Homo sapiens, UniProt P61244-2, residues 1-151)
Method: protein-binding microarray
Form: double-stranded DNA, one strand shown
Medium: in vitro
Tested at: not given
Notes: k-mer, scored over probes, only values ≥0.25
Reading: higher = stronger binding
| Strand | E-score |
| --- | --- |
| ACGTGTTG | 0.441 |
| AGAACGAG | 0.262 |
| TCGTGGCA | 0.355 |
| CATGTTAC | 0.327 |
| CATGTGGA | 0.471 |
| GTGATCAC | 0.267 |
| GTGTGCTA | 0.278 |
| AGGACACG | 0.257 |

Series 2
SMILES: c1ccc(N2CCN(Cc3nc4ccccc4[nH]3)CC2)nc1
Method: competition with immobilised ligand
Tested at: 1 µM
| target | test | remaining binding [%] |
| --- | --- | --- |
| WNK4 (Homo sapiens, UniProt Q96J92) | binding | 100 |
| ROS1 (Homo sapiens, UniProt P08922) | cell-free assay | 100 |
| STK35 (Homo sapiens, UniProt Q8TDR2) | binding | 100 |
| PRKAA2 (Homo sapiens, UniProt P54646) | cell-free assay | 100 |
| Tyrosine-protein kinase ABL1, non-phosphorylated (ABL1, Homo sapiens, UniProt P00519, F317L) | binding | 100 |
| NTRK1 (Homo sapiens, UniProt P04629) | cell-free assay | 100 |
| FGFR3 (Homo sapiens, UniProt P22607, G697C) | cell-free assay | 100 |
| WNK3 (Homo sapiens, UniProt Q9BYP7) | binding | 100 |
| MAP3K3 (Homo sapiens, UniProt Q99759) | binding | 100 |
| PRKCH (Homo sapiens, UniProt P24723) | cell-free assay | 89 |
| SGK3 (Homo sapiens, UniProt Q96BR1) | binding | 100 |
| RET (Homo sapiens, UniProt P07949, V804L) | cell-free assay | 100 |
| TAOK2 (Homo sapiens, UniProt Q9UL54) | binding | 83 |
| PHKG2 (Homo sapiens, UniProt P15735) | cell-free assay | 82 |
| MKNK1 (Homo sapiens, UniProt Q9BUB5) | binding | 91 |

Series 3
Compound: CC[n+]1c(/C=C/N(C)c2ccccc2)n(-c2ccccc2)c2ccc(-c3nc4ccccc4s3)cc21
Effect on: enzyme activity
Action: inhibitor
Tested at: 0.5 µM
Baseline: control
| target | remaining activity |
| --- | --- |
| CHEK2 (Homo sapiens, UniProt O96017) | 105% |
| STK39 (Homo sapiens, UniProt Q9UEW8) | 81.1% |
| PRKACA (Homo sapiens, UniProt P17612) | 103% |
| DAPK2 (Homo sapiens, UniProt Q9UIK4) | 94.3% |
| NEK2 (Homo sapiens, UniProt P51955) | 100% |
| PRKCA (Homo sapiens, UniProt P17252) | 77.7% |
| GRK3 (Homo sapiens, UniProt P35626) | 97.4% |
| TGFBR1 (Homo sapiens, UniProt P36897) | 102% |
| Cyclin-dependent kinase 4, with cyclin D1 (CDK4, Homo sapiens, UniProt P11802) | 107% |
| IKBKE (Homo sapiens, UniProt Q14164) | 94.7% |
| Cyclin-dependent kinase 5, with p25 (CDK5, Homo sapiens, UniProt Q00535) | 103% |
| CAMK2D (Homo sapiens, UniProt Q13557) | 94% |
| STK11 (Homo sapiens, UniProt Q15831) | 93.1% |
| IKBKB (Homo sapiens, UniProt O14920) | 98.6% |
| CAMKK2 (Homo sapiens, UniProt Q96RR4) | 115% |
| TGFBR2 (Homo sapiens, UniProt P37173) | 95.1% |

Series 4
Target: PABPC1L2, full length, GST fusion (mouse, UniProt A0ABA7IW68)
Method: RNAcompete
Form: RNA
Medium: in vitro
Tested at: 20 nM
Notes: 7-mer, probes averaged, single round
Baseline: mean of 7-mers
Reading: higher = stronger binding
Construct (chain): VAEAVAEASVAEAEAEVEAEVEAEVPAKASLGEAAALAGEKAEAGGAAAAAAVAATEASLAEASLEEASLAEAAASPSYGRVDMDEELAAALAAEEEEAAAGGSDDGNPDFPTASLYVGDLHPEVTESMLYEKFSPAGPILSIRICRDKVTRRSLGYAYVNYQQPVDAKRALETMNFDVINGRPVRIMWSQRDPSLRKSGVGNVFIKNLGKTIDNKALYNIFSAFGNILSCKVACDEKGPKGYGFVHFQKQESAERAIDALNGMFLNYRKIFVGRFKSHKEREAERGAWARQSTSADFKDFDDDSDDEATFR
| Strand | 7-mer Z-score |
| --- | --- |
| CGCAGGC | 0.0152 |
| AUUUUAC | -0.208 |
| GACACUC | -0.186 |
| GGUCCCG | -0.211 |
| AAGACUA | 0.378 |
| CUUGUGU | -0.373 |
| AAGCAAU | 0.218 |
| UCCAGAG | -0.257 |

Excerpt of the above (series 2):
| target | test | remaining binding [%] |
| --- | --- | --- |
| WNK3 (Homo sapiens, UniProt Q9BYP7) | binding | 100 |
| MAP3K3 (Homo sapiens, UniProt Q99759) | binding | 100 |
| WNK4 (Homo sapiens, UniProt Q96J92) | binding | 100 |
| SGK3 (Homo sapiens, UniProt Q96BR1) | binding | 100 |
| PRKCH (Homo sapiens, UniProt P24723) | cell-free assay | 89 |
